Results pooled from the literature.
Lines come from different studies, so protocols differ. ± marks the error that the study gave.
Cell line: MCF7

SMILES | observed | method | medium | time | setting | with | IC50
COc1ccc(NC(=O)NNC(=O)CSc2nc3ccccc3c(=O)n2-c2ccc(C)cc2)cc1 | cell growth or viability | MTT |  |  |  |  | 76.1 µM
Brc1ccccc1SSc1ccccc1Br | cell growth or viability | SRB |  |  |  |  | > 10 µM
NCCCNc1n[n+]([O-])c2ccccc2[n+]1[O-] | cytotoxicity | MTT |  | 24 h | normoxia |  | 170 ± 4 µM
COc1cc(-c2cc(-c3ccc(Cl)cc3)n(CC(=O)n3nc(C)cc3C)c(=O)c2C#N)ccc1O | cell growth or viability | MTT |  |  |  |  | ≥ 50 µM
C=CCc1ccc(OCc2nnc(SCC(=O)N3CCCCC3)o2)c(OC)c1 | cell growth or viability | MTT |  | 72 h |  |  | 173 µM
N#CC(C(=O)Nc1nnc(NC(=O)c2ccccc2)s1)=C1SC(=O)CN1c1ccccc1 | cell growth or viability | MTT |  | 48 h |  |  | 84.8 µM
[O-][n+]1nc(NCCCCNc2n[n+]([O-])c3ccccc3[n+]2[O-])nc2ccccc21 | cytotoxicity | MTT | 10% FBS medium | 6 h + 18 h | hypoxia 3% O2 |  | > 30 µM
CC(C)c1nc(N(C)S(C)(=O)=O)nc(-c2ccc(F)cc2)c1/C=C/[C@@H](O)C[C@@H](O)CC(=O)O | cell growth | SRB |  | 72 h |  |  | 1.49 µM
N#CC(C#N)=C1Sc2nc3ccc(S(=O)(=O)N4CCCC4)cc3nc2S1 | cell growth |  |  | 24 h |  |  | 79.4 ± 4.1 µM
COc1ccc(-n2c(SCC(=O)NNC(=O)Nc3ccc(C(F)(F)F)cc3Cl)nc3ccccc3c2=O)cc1 | cell growth or viability | MTT |  |  |  |  | 61.9 µM
O=S(=O)(Sc1cccc(Cl)c1)c1cccc(Cl)c1 | cell growth | sulforhodamine B |  |  |  |  | > 10 µM
N#Cc1c(-c2ccc(Cl)cc2)c2c(=O)[nH]c(-c3ccc(Cl)cc3Cl)nc2n(C2CCCCC2)c1=O | cell growth or viability | MTT |  |  |  |  | 0.57 µM
CS(=O)(=O)CCNCc1ccc(-c2ccc3ncnc(Nc4ccc(OCc5cccc(F)c5)c(Cl)c4)c3c2)o1 | cell growth or viability | MTT |  | 72 h |  |  | 22 µM
COc1ccc(C=C(C#N)C(=O)Nc2nnc(NC(=O)c3ccccc3)s2)cc1 |  |  |  | 48 h |  |  | 9.48 ± 0.8 µM
CN1CCC2(CC1)C/C(=N\N=C\c1ccc(N(C)C)cc1)c1ccccc1O2 | cell growth or viability | MTT |  | 48 h |  |  | 26.4 µM
COc1cc(/C=C/C(=O)CC(=O)/C=C/c2ccc(O)c(OC)c2)ccc1O | cell growth or viability | MTT |  | 48 h |  |  | 24.8 µg/mL
CCOC(=O)c1nc2c(c(-c3ccc(Cl)cc3)c(C#N)c(=O)n2C2CCCCC2)c(=O)[nH]1 | cell growth or viability | MTT |  |  |  |  | 29.6 µM
CC(C)(C)c1ccc(CN2CCN(C(c3ccccc3)c3ccc(Cl)cc3)CC2)cc1 (stereo not shown) | cell growth |  |  | 72 h |  |  | 31 µM
O=C(c1ccc2ccccc2c1)c1cn(-c2ccccc2)nc1C1=Nn2c(SCCSc3nnc4n3N=C(c3nn(-c5ccccc5)cc3C(=O)c3ccc5ccccc5c3)CS4)nnc2SC1 | cell growth or viability | MTT |  | 48 h |  |  | 7.69 µM
Cc1nc2ccccc2nc1SCC(=O)Nc1ccc(C(=O)Nc2cccc(Cl)c2)cc1 | cell growth or viability | MTT |  |  |  |  | 5.8 µM
N#Cc1c(Nc2ccccc2)n2nc(NC(=O)c3ccccc3)sc2nc1=O | cell growth or viability | MTT |  | 48 h |  |  | 12.7 µM
O=S(=O)(Sc1cccc(Br)c1)c1cccc(Br)c1 | cell growth | sulforhodamine B |  |  |  |  | > 10 µM
N#CC(C(=O)Nc1nnc(NC(=O)c2ccccc2)s1)=C1Nc2ccccc2O1 | cell growth or viability | MTT |  | 48 h |  |  | < 10 µM
COc1ccc2[nH]cc(CCNC(C)=O)c2c1 | cell survival | MTT |  | day 9 | dosed days 2, 4, 7 |  | 27.9 µM
NCCNc1n[n+]([O-])c2ccccc2[n+]1[O-] | cytotoxicity | MTT | 10% FBS medium | 6 h + 18 h | hypoxia 3% O2 |  | 33.4 ± 9.4 µM

SMILES | observed | method | medium | time | setting | with | IC50
Clc1cccc(SSc2cccc(Cl)c2)c1 | cell growth or viability | SRB |  |  |  |  | > 10 µM
COc1ccc(-n2c(SCC(=O)NNC(=O)Nc3c(C)cccc3C)nc3ccccc3c2=O)cc1 | cell growth or viability | MTT |  |  |  |  | 78.3 µM
Cc1c(N)nc([C@H](CC(N)=O)NC[C@H](N)C(N)=O)nc1C(=O)N[C@H](C(=O)N[C@H](C)[C@@H](O)[C@H](C)C(=O)N[C@H](C(=O)NCCC1=N[C@@H](c2nc(C(=O)NCCCCN=C(N)N)cs2)CS1)[C@@H](C)O)[C@@H](O[C@@H]1O[C@@H](CO)[C@@H](O)[C@H](O)[C@@H]1O[C@H]1O[C@H](CO)[C@@H](O)[C@H](OC(N)=O)[C@@H]1O)c1cnc[nH]1 | cell growth or viability | resazurin |  | 96 h |  |  | 4.17 µg/mL
CN1CCC2(CC1)C/C(=N\N=C\c1ccc(Cl)cc1)c1ccccc1O2 | cell growth or viability | MTT |  | 48 h |  |  | 8.74 µM
CC1=NNC(=O)C1=C1Sc2nc3ccc(S(=O)(=O)N4CCCC4)cc3nc2S1 | cell growth |  |  | 24 h |  |  | 70.1 ± 3.7 µM
COc1cccc2c1C(=O)c1c(O)c3c(c(O)c1C2=O)C[C@@](O)(C(=O)CO)C[C@@H]3O[C@H]1C[C@H](N)[C@H](O)[C@H](C)O1 | cell growth or viability | MTT |  | 48 h |  |  | 17.2 µM
N#CC(=Cc1ccc(Cl)cc1Cl)C(=O)Nc1nnc(NC(=O)c2ccccc2)s1 | cell growth or viability | MTT |  | 48 h |  |  | 5.51 µM
CC(=O)c1nn(-c2cccc(C)c2)/c(=N/N=C(\C)c2ccc(NC(=O)c3cccnc3)cc2)s1 | cytotoxicity | MTT |  | 24 h |  |  | 20.5 ± 1.4 µM
NCCCCCCNc1n[n+]([O-])c2ccccc2[n+]1[O-] | cytotoxicity | MTT | 10% FBS medium | 6 h + 18 h | hypoxia 3% O2 |  | 110 ± 9.4 µM
Cc1nc2ccccc2n(CC(=O)Nc2ccc(C(=O)NNC(=O)c3ccccc3O)cc2)c1=O | cell growth or viability | MTT |  |  |  |  | 22.3 µM
Cc1ccc(-n2c(SCC(=O)NNC(=O)NCc3ccccc3)nc3ccccc3c2=O)cc1 | cell growth or viability | MTT |  |  |  |  | 9.43 µM
c1ccc(P(=NCc2ccccn2)(c2ccccc2)c2ccccc2)cc1 | cell growth or viability | MTT |  | 74 h |  |  | > 100 µM
COc1ccc(-n2c(SCC(=O)NNC(=O)Nc3ccc(F)cc3)nc3ccccc3c2=O)cc1 | cell growth or viability | MTT |  |  |  |  | 10.2 µM
Cc1cc(C)n(-c2nnc(NC(=O)c3ccccc3)s2)c(=O)c1C#N | cell growth or viability | MTT |  | 48 h |  |  | 14.1 µM
C=CCc1ccc(O)c(-c2ccc(O)c(CC=C)c2)c1 | cell proliferation | MTS |  | 24 h |  | temozolomide 250 µM | 12.6 µM
COc1ccc(NC(=O)NNC(=O)CSc2nc3ccccc3c(=O)n2-c2ccc(OC)cc2)cc1 | cell growth or viability | MTT |  |  |  |  | 93.7 µM
Brc1cccc(SSc2cccc(Br)c2)c1 | cell growth or viability | SRB |  |  |  |  | > 10 µM
O=c1[nH]cc(F)c(=O)[nH]1 | cell growth or viability |  |  | 24 h |  |  | 78.6 µM
[O-][n+]1nc(NCCCCCCNc2n[n+]([O-])c3ccccc3[n+]2[O-])nc2ccccc21 | cytotoxicity | MTT |  | 24 h | normoxia |  | > 30 µM
O=C(c1ccc2ccccc2c1)c1cn(-c2ccccc2)nc1C1=Nn2c(S)nnc2SC1 | cell growth or viability | MTT |  | 48 h |  |  | 2.74 µM
Nc1n[n+]([O-])c2ccccc2[n+]1[O-] | cytotoxicity | MTT | 10% FBS medium | 6 h + 18 h | hypoxia 3% O2 |  | 52 µM
CCOC(=O)C(C#N)=C1Sc2nc3ccc(S(=O)(=O)N4CCCC4)cc3nc2S1 | cell growth |  |  | 24 h |  |  | 74.5 ± 3.9 µM
NCCCCCNc1n[n+]([O-])c2ccccc2[n+]1[O-] | cytotoxicity | MTT |  | 24 h | normoxia |  | > 76 µM
COc1ccc(/C=C/C(=O)CC(C)=O)cc1OC | cell growth or viability | MTT |  | 72 h |  |  | < 10.6 µM

Excerpt of the above:
SMILES | observed | method | medium | time | setting | with | IC50
CC1=NNC(=O)C1=C1Sc2nc3ccc(S(=O)(=O)N4CCCC4)cc3nc2S1 | cell growth |  |  | 24 h |  |  | 70.1 ± 3.7 µM
COc1cccc2c1C(=O)c1c(O)c3c(c(O)c1C2=O)C[C@@](O)(C(=O)CO)C[C@@H]3O[C@H]1C[C@H](N)[C@H](O)[C@H](C)O1 | cell growth or viability | MTT |  | 48 h |  |  | 17.2 µM
N#CC(=Cc1ccc(Cl)cc1Cl)C(=O)Nc1nnc(NC(=O)c2ccccc2)s1 | cell growth or viability | MTT |  | 48 h |  |  | 5.51 µM
CC(=O)c1nn(-c2cccc(C)c2)/c(=N/N=C(\C)c2ccc(NC(=O)c3cccnc3)cc2)s1 | cytotoxicity | MTT |  | 24 h |  |  | 20.5 ± 1.4 µM
NCCCCCCNc1n[n+]([O-])c2ccccc2[n+]1[O-] | cytotoxicity | MTT | 10% FBS medium | 6 h + 18 h | hypoxia 3% O2 |  | 110 ± 9.4 µM
Cc1nc2ccccc2n(CC(=O)Nc2ccc(C(=O)NNC(=O)c3ccccc3O)cc2)c1=O | cell growth or viability | MTT |  |  |  |  | 22.3 µM
Cc1ccc(-n2c(SCC(=O)NNC(=O)NCc3ccccc3)nc3ccccc3c2=O)cc1 | cell growth or viability | MTT |  |  |  |  | 9.43 µM
c1ccc(P(=NCc2ccccn2)(c2ccccc2)c2ccccc2)cc1 | cell growth or viability | MTT |  | 74 h |  |  | > 100 µM
